Published values gathered from unrelated publications.
Lines come from different studies, so protocols differ.
Target: Cyclin-dependent kinase-like 3 (CDKL3, Homo sapiens, UniProt Q8IVW4)

| SMILES | read-out | mode | method | concentration | relative to | measurement | result |
| --- | --- | --- | --- | --- | --- | --- | --- |
| COc1cc(Nc2nc(C)cc(-c3cnn4nc(OC)ccc34)n2)cc(C(F)(F)F)c1 | – | inhibitor | – | 1 µM | control | remaining activity | 94% |
| COc1c(Cl)cccc1Nc1c(-c2ccncc2C#C[C@@]2(C)CCCN2C(=O)/C=C/CN(C)C)[nH]c2c1C(=O)NCC2 | binding | – | competition with immobilised ligand | 3 µM | – | remaining binding | 100% |
| CNC(=O)C[C@H](Cc1ccc(C#N)cc1)NC(=O)c1cc(-c2ccc(CN[C@H](C)c3ccc(C)cc3)o2)ccc1Cl | enzyme activity | inhibitor | – | 1 µM | – | activity vs control | 104% |
| CCN1CCN(Cc2ccc(C(=O)Nc3ccc(C)c(NCc4cnc5[nH]ccc5c4OC)c3)cc2C(F)(F)F)CC1 | binding | – | competition with immobilised ligand | 1 µM | – | remaining binding | 71% |
| CNC1C[S+]2CC[S+]3CC[S+](C1)[Ru-4]321([N]=C=S)[n]2c3ccc(OC)cc3c3c4c(c5cc(F)c[n+]1c5c32)C(=O)NC4=O (stereo not drawn) | – | – | KinomeScan | 0.1 µM | untreated | remaining binding | 82% |
| Cc1cnc2nc1Nc1cccc(c1)COC/C=C/COCc1cc(ccc1OCCN1CCOCC1)N2 | binding | – | – | 0.1 µM | – | remaining binding | 100% |
| Nc1ncc2c(n1)-c1c([nH]c3ccc(C4=CCOCC4)cc13)CCC2 | binding | – | competition with immobilised ligand | 1 µM | – | remaining binding | 100% |
| O=C(Cc1ccc(OCc2ccccc2)cc1)NC1(C(=O)O)CCN(C(=O)c2ccc(-c3cccc(Cl)c3)cc2)CC1 | enzyme activity | inhibitor | – | 10 µM | – | activity vs control | 98% |
| C=CC(=O)N1CCc2ccc(-n3c(=O)ccc4cnc5ccc(-c6cnn(C)c6)cc5c43)cc21 | – | – | KINOMEscan | 1 µM | DMSO control | remaining binding | 89% |
| CN1CC[C@@H](COc2cnc(C#N)cc2-c2ccn3nc(NC(=O)C4CC4)cc3c2)C1 | enzyme activity | inhibitor | – | 1 µM | – | inhibition | 10% |
| Cc1ccc(-c2c(/C=C(\C#N)C(=O)NC(C)C)n(CCCO)c3ncnc(N)c23)cc1 | cell-free assay | – | competition with immobilised ligand | 1 µM | – | remaining binding | 100% |
| CC(C)=CC1OC(C)(C)C2C=C3C(=O)C(Cl)=CC(O)C3C3C(O)C4OC4C(=O)C132 (stereo not drawn) | cell-free assay | – | competition with immobilised ligand | 10 µM | – | remaining binding | 93% |
| CNC(=O)C1CCN(c2cc(C)c(F)cc2NC(=O)c2ccc(-c3cc(O)ccc3C)c(C)c2)CC1 | binding | – | competition with immobilised ligand | 1 µM | – | remaining binding | 96% |
| C=CC(=O)N1CCCC(n2c(=O)c3ncccc3n(Cc3ccc(Oc4ccccc4)cc3)c2=O)C1 (stereo not drawn) | cell-free assay | – | competition with immobilised ligand | 1 µM | – | remaining binding | 68% |
| COc1cc(Nc2nccc(-c3cnn4nc(OC)ccc34)n2)cc(C(F)(F)F)c1 | binding | – | competition with immobilised ligand | 1 µM | – | remaining binding | 78% |

Some of these lines once more:
| SMILES | read-out | mode | method | concentration | relative to | measurement | result |
| --- | --- | --- | --- | --- | --- | --- | --- |
| C=CC(=O)N1CCc2ccc(-n3c(=O)ccc4cnc5ccc(-c6cnn(C)c6)cc5c43)cc21 | – | – | KINOMEscan | 1 µM | DMSO control | remaining binding | 89% |
